Results from different studies.
A part holds a random share of what one study measured. Changes are numbered by the printed parent chain.

Series 1 — target: CCNB2, cyclin fold, Cln2 fusion (human); method: yeast growth competition, sequencing; medium: yeast; setting: weak parent motif; relative to: not given; direction: higher = stronger binding
Starting sequence: MASTL docking peptide (human); PMIAKNLMCELDE
Under “normalised enrichment score”, `PMIAFNLMCELDE [K5F]` is recorded as -0.245.
`PMIAKNLMCELLE [D12L]`: “normalised enrichment score” 0.196.
`PPIAKNLMCELDE [M2P]` — result for “normalised enrichment score”: 0.844.
Under “normalised enrichment score”, `PMIAKNLDCELDE [M8D]` is recorded as 0.421.
`PMIAKNLMCELAE [D12A]`: “normalised enrichment score” 0.718.
`PMIAKNLMSELDE [C9S]`: “normalised enrichment score” 0.602.

Series 2 — method: protein-binding microarray; form: double-stranded DNA, one strand shown; medium: in vitro; concentration: 2540 nM top; setting: 60-bp whole probe; together with: salmon DNA 0.4 mg/ml; relative to: random background probes; direction: higher = stronger binding; all sequences stand within: GCCTAGCAC … GTCTTGATTCGCTTGACGCTGCTG
Target: Interferon regulatory factor 3, full length, phosphomimetic (IRF3, Homo sapiens, UniProt Q14653, residues 1-427, S386D/S396D/S398D/S402D/T404D/S405D)
Chain of UniProt Q14653 (whole entry, unmodified, looked up): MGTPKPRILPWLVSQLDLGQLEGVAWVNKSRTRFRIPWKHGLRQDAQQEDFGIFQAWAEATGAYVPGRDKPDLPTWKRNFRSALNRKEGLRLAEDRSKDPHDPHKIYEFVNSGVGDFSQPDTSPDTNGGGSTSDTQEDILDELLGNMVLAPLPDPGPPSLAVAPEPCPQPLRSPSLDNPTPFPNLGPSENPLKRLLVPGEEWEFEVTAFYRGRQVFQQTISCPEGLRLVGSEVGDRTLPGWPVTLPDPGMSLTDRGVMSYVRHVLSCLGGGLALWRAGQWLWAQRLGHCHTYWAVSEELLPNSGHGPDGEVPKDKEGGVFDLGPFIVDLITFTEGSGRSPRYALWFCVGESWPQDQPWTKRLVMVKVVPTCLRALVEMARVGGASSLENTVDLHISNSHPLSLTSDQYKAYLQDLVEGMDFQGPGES
Under “fitted relative affinity”, `GACGGTATCGACACAGGGGACGTGCTA` is recorded as 0.537 z-score.
For `TTAGGTATCGGGTATTGGTTAGTGCTA`, “fitted relative affinity” read 0.967 z-score.
`TTAGATTTCAGACTGGACTAGTGCTAG` — result for “fitted relative affinity”: 0.542 z-score.
`GACGGGTTCGGGACTGGGGACGTGCTA` — result for “fitted relative affinity”: -0.257 z-score.
`GACGGACTGCTTTTCCTGCCGTGCTAG` — result for “fitted relative affinity”: -0.173 z-score.
`GACAGACTGCTTTTCCTGACGTGCTAG` — result for “fitted relative affinity”: -0.0494 z-score.
For `TCAGCTTTGCCTTCAGCACTGTGCTAG`, “fitted relative affinity” read -0.185 z-score.
`TTAGATATCGCGTATCGATTAGTGCTA` — result for “fitted relative affinity”: 0.145 z-score.
Under “fitted relative affinity”, `GATGGTATCGGGACTGGGGACGTGCTA` is recorded as 1.25 z-score.
For `AGTCCGTGGATTGACCAGATGTGCTAG`, “fitted relative affinity” read -0.264 z-score.

Series 3 — method: DHFR PCA, deep sequencing; medium: yeast; together with: (+)-ABA 17 µM; relative to: wild-type fitted maximum; direction: higher = stronger binding
Target: ABI1, truncated, D143A, DHFR fusion (Arabidopsis thaliana)
Setting: methotrexate growth selection, single substitutions
Starting sequence: PYL1, truncated, DHFR fusion (Arabidopsis thaliana); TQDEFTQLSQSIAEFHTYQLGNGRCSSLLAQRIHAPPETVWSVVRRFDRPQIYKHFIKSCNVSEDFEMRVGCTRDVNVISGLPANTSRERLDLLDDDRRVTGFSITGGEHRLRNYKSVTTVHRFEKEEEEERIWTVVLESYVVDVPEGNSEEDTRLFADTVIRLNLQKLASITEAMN
`D75Y` — result for “relative binding score”: 86.6%.
`I33Q` — result for “relative binding score”: -6.22%.
`R111Y`: “relative binding score” 4.93%.
For `L94V`, “relative binding score” read 34.3%.
`N85V` — result for “relative binding score”: 83.8%.
`A170H` — result for “relative binding score”: 7.29%.

Other studies, line by line
The fold induction of `PhoQ, residues 284 288 289 292 302 303 NLALSC` is reported as 2.67 (PhoP, residues 12 14 15 18 19 SQCLL (Escherichia coli, UniProt P23836); Sort-seq, item: YFP reporter; E. coli; PhoQ-PhoP variant library, together with: 10 µM Mg2+; relative to: high Mg2+ state, higher = stronger signaling).

For quick reference, copied from above (series 2):
`TTAGATTTCAGACTGGACTAGTGCTAG` — result for “fitted relative affinity”: 0.542 z-score.
